Published values of several laboratories.
Lines come from different studies, so protocols differ. Values joined by “and” are separate records of one study, mostly repeats; a detail may differ. Numbers after ± are the reported error.

| Structure (SMILES) | test | system | conditions | scale | quantity | result |
| --- | --- | --- | --- | --- | --- | --- |
| C[C@@H](NC(=O)N1C(=O)[C@H](Cc2ccnc(N)c2)[C@H]1C(=O)O)C1CCCCC1 | – | human, plasma | continuous intravenous infusion, 1.5 mg/kg/h, days 1 to 6 of 5-day infusion, median | relative to: baseline | time to maximum PT over baseline | 28 h |
| CC(C)(C)C1CCc2c(sc(NC(=O)c3ccco3)c2C(=O)O)C1 (centres unmarked) | hot plate test | ICR mouse | intragastric, 20 mg/kg, 3 h | relative to: vehicle | pain response latency | no effect |
| COc1ccc(-c2cncc(N[C@@H](C)c3cccc(NC(=O)c4cncc(C)c4)c3)n2)cc1OC | measured: rno-miR-874-3p | rat SU5416/hypoxia model, lung | dose not given, unit not given | relative to: SU5416/hypoxia vehicle | delta delta Ct | -0.188 |
| C[C@H]1O[C@@H](O[C@H]2CC[C@@]3(C)[C@@H](CC[C@]4(C)[C@@H]3C=C[C@]35OC[C@@]6(CCC(C)(C)C[C@H]63)[C@@H](O)C[C@]54C)[C@]2(C)CO)[C@H](O)[C@@H](O[C@@H]2O[C@H](CO)[C@@H](O)[C@H](O)[C@H]2O)[C@H]1O | – | pair-fed control mice, no ethanol | oral, 15 mg/kg/day | – | body weight change | 0.5 g and 0.8 g and 1.5 g and 1 g and 1.2 g and 0.9 g |
| CN(C(=O)n1cnc(-c2ccc[n+]([O-])c2)c1)C1CCCCC1 | measured: AEA and OEA levels | cynomolgus monkey (Macaca fascicularis), plasma | oral, tested doses 0.1, 0.3, 1.0 mg/kg | – | dose for maximal effect | 0.3 mg/kg |
| OCC(O)CO | ELISA | Mus musculus female wild type, serum | drinking water, 5% w/v, 2 days | – | FGF21 level | 464 pg/mL and 2470 pg/mL and 400 pg/mL and 404 pg/mL and 195 pg/mL and 205 pg/mL |
| O=C(O)/C=C/c1nccc2c3ccccc3n(Cc3ccc(Br)c4ccccc34)c12 | – | mouse, acute hyperuricaemia model | oral, 2 mg/kg | – | decrease in serum uric acid | 82.9% |
| COc1cc(C2C3=C(COC3=O)N(CCO)c3cc4c(cc32)CCC4)cc(OC)c1OC (centres unmarked) | – | female NSG mice, EMT6 orthotopic | intraperitoneal, 30 mg/kg, 5 days/week, 21 days | relative to: vehicle | lung metastasis reduction | ~66% |
| O=C(NC[C@H]1CN(c2ccc(N3CCOCC3=O)cc2)C(=O)O1)c1ccc(Cl)s1 | – | human mild renal impairment, plasma | 10 mg, mean, unit not given | relative to: baseline | prothrombin time AUC(0-48h) | 95.8 |
| N#Cc1ccc2c(c1)[C@H]1CCCN(C(=O)c3ccc4[nH]cnc4c3)[C@H]1C2 | measured: ACTH | human, Phase II trial | oral, 240 mg once daily, HPA axis, mean | – | change from baseline | 3.8 pmol/L |
| CCOC(=O)c1c(NC(=O)CNC(C)C)sc2c1CCCCC2 | epileptiform activity, EEG | mouse APP J20 | 75 mg/kg | – | reduction of NREM spike rate | ~50% |
| NC(=O)c1cnc2[nH]ccc2c1N[C@@H]1[C@@H]2CC3C[C@H]1C[C@@](O)(C3)C2 | CD4+ memory T cells, flow cytometry | Caucasian humans, peripheral blood | 20 mg single dose | relative to: baseline | percent change | -1.27% |
| CC(C)NCC(O)c1ccc(O)c(O)c1 (centres unmarked) | – | ventricular cardiomyocytes, C57BL/6 mouse | dose not given, 0.688 s | – | sarcomere length | 1.72 µm |
| CC[C@@H]1[C@H](F)C(=O)N[C@@H]1COc1nccc2cc(C(N)=O)c(OC)cc12 | ATP-site probe binding, ActivX profiling, measured: TAO1, TAO3 | THP-1 cell lysate | 0.01 mM, Lys2 site | – | inhibition | 6.6% |
| C[C@H](Oc1ccc(Br)cc1-c1ccon1)C(=O)O | peak grip force, handgrip dynamometry | healthy human | 50 mg, SAD | – | difference from placebo | -4.19 kg |
| CN[C@@H]1COc2c(S(=O)(=O)NC(=O)Nc3c4c(cc5c3CCC5)CCC4)cnn2C1 | measured: IL-18 | human participants, whole blood ex vivo | 900 mg single dose, 24 h, IL-18, circulating, adjusted for, added: LPS/ATP | relative to: baseline | inhibition | 74.9% |
| N#Cc1ccn2c(-c3ccncc3)c(-c3ccc(F)cc3)nc2c1 | kinase binding, competitor, MIB/MS competition, measured: RIM11 | Candida albicans cell lysate | 1 µM | relative to: DMSO | log2 fold change | 0.0181 |
| Cn1cc(Nc2nccc(-c3ccc4c(c3)CN(C3COC3)CC[C@H]4NC(=O)c3cn(C(C)(C)C)nn3)n2)cn1 | measured: growth hormone signaling | splenic B cells, mice | 30 mg/kg, IgD-activated in vivo | relative to: vehicle, direction not given | pathway activation z-score | 2.71 |
| COc1cc2cc(-c3ccc(CC(=O)Nc4cc(C(C)(C)C(F)(F)F)no4)cn3)cnc2cc1OC | RECIST v1.1 | human RET-altered solid tumours | 13 100 mg tablets, phase I | – | best overall response PD | 13% |
| O=C(COc1ccc(Cl)cc1)NC12CC(c3nnc([C@H]4C[C@@H](OC(F)(F)F)C4)o3)(C1)C2 | – | healthy human, PBMC | oral, 800 mg single dose, day 2, 24 h post-dose, median, added: sodium arsenite ex vivo | relative to: baseline | ATF4 protein change | -66.6% |
| Cc1n[nH]c2ccc(-c3cc(OC[C@@H](N)Cc4ccccc4)cnc3-c3ccoc3)cc12 | kinase binding, competitor, MIB/MS competition, measured: CTK1 | Candida albicans cell lysate | 1 µM | relative to: DMSO | log2 fold change | -0.159 |
| CC1(C)CCC(c2ccc(Cl)cc2)=C(CN2CCN(c3ccc(C(=O)NS(=O)(=O)c4ccc(N[C@H](CCN5CCOCC5)CSc5ccccc5)c(S(=O)(=O)C(F)(F)F)c4)cc3)CC2)C1 | cell kill | primary neoplastic T lymphocytes, dog 8 | 24 h, multicentric intermediate-large T-cell lymphoma | – | EC50 | 10 nM |
| Cn1cc([C@H]2C[C@H]3CSC(N)=N[C@@]3(c3ccc(F)cc3F)CO2)cn1 | measured: Aβx-42 | Mus musculus wild-type, brain | subcutaneous, 3 mg/kg, 9 h | – | Aβ42 level | 0.68 ng/g |
| C[C@@H](O)CCOC(=O)C[C@@H](C)O | measured: Phe | human, plasma | 60 min, log2-transformed values | – | metabolite level | 5.88 ± 0.22 µmol/L |

| Structure (SMILES) | test | system | conditions | scale | quantity | result |
| --- | --- | --- | --- | --- | --- | --- |
| CCCN1CCCC[C@H]1C(=O)Nc1c(C)cccc1C | – | Sprague-Dawley rat, male | intrathecal, 30 µL, 15 mM | – | motor block | 100 % MPE |
| OC(CCN1CCCCC1)(c1ccccc1)C1CC2C=CC1C2 (centres unmarked) | resting-state EEG | healthy elderly humans | oral, 2 mg, eyes closed, LS mean | relative to: baseline | delta power change, EEG, in Pz-O1 | 14.3% |
| NCC(=O)Nc1cncc(-c2nn3c(=O)cc(N4CCNCC4)nc3s2)c1 | ADP-induced platelet aggregation, light transmission aggregometry | human, stable CAD on aspirin, ex vivo platelets | subcutaneous, 0.04 mg/kg, 5 min post-dose, median value, added: ADP 20 µM | – | inhibition | 20.5% |
| O=S(=O)(NCCNC/C=C/c1ccc(Br)cc1)c1cccc2cnccc12 | – | mouse zygotes | 20 µM, 24 h post-hCG | – | embryos reaching 4-cell | 0% |
| CC(C)[C@H](C(=O)Nc1ccc(C(=O)NO)cc1)c1ccccc1 | MRI volumetry | human, right IAC schwannoma | dose not given, day 1512 post-treatment | – | tumour volume | 0.0302 cm³ |
| CCc1c(C)nc(-c2ccc(Cl)s2)nc1Nc1ccc(CC(=O)O)cc1 | – | mice, chronic ethanol plus binge | intraperitoneal, 0.3 mg/kg daily, ethanol diet 4 weeks, dosed last two | relative to: vehicle | serum ALP | no effect |
| CN(CCOc1ccc(CC2SC(=O)NC2=O)cc1)c1ccccn1 (racemic) | indirect calorimetry | mice, diet-induced obese | dose not given, average over 72 h, end of treatment | – | locomotor activity | 377 ± 228 counts/20 min |
| C[C@H]1C[C@H]2CSC(N)=N[C@@]2(c2nc(NC(=O)c3ccc(OC(F)F)cn3)cs2)CO1 | measured: Aβx-40 | healthy adults, plasma | 125 mg once daily, day 1 | relative to: placebo | percent change from baseline | -69.1% |
| COc1ccc(F)cc1C(=O)NCc1ccc(-c2nn([C@@H](C)C(F)(F)F)c(N)c2C(N)=O)cc1 | – | B-cell malignancy patients | dose not given, at data cutoff | – | patients remaining on treatment | 73% |
| COc1ccccc1[C@H](Cn1c(=O)n(C(C)(C)C(=O)O)c(=O)c2c(C)c(-c3ncco3)sc21)OC1CCOCC1 | – | human | 20 mg, post-treatment | – | blood ketones | 0.13 ± 0.05 mmol/L |
| COc1cc(N2CCC(N3CCN(C)CC3)CC2)ccc1Nc1ncc(Cl)c(Nc2ccccc2P(C)(C)=O)n1 | – | nude mice, NCI-H3122 xenograft | intraperitoneal, 10 mg/kg every other day, day 9 | – | tumour volume | 109 mm3 and 209 mm3 and 242 mm3 and 216 mm3 and 102 mm3 |
| COc1ccc2c3c([nH]c2c1)[C@H](CC(C)C)N1C(=O)[C@H](CC(=O)NC(C)C)NC(=O)[C@@H]1C3 | measured: protoporphyrin IX | Fech-mutant mice, serum | oral, 100 mg/kg, 0.5 h | – | serum concentration | 206 ng/mL and 377 ng/mL |
| N#Cc1ccc2c(c1)[C@H]1CCCN(C(=O)c3ccc4[nH]cnc4c3)[C@H]1C2 | – | human, urine | 20 mg, 24 h, day 1 over day -1 | relative to: placebo and baseline | total urinary corticosteroids | 68.7 % change |
| C[C@H](NC(=O)c1c(C(F)F)nn(C)c1Oc1cccc(C(F)(F)F)c1)c1ccc(C(=O)O)cc1 | irRECIST | human, advanced tumours | 500 mg | best overall response | partial response | 0% |
| c1ccc(-c2n[nH]cc2-c2ccnc3ccccc23)nc1 | kinase binding, competitor, MIB/MS competition, measured: ATG1 | Candida albicans cell lysate | 100 nM | relative to: DMSO | log2 fold change | 1.35 |
| C1=C/COCc2cc(ccc2OCCN2CCCC2)Nc2nccc(n2)-c2cccc(c2)COC/1 | – | BALB/c mice rhEPO-induced polycythemia, bone marrow | 120 mg/kg | – | CD71/Ter119 cells | 12% and 13.9% and 12.3% and 12.8% and 10% and 13.8% |
| CCN1CCN(Cc2ccc(Nc3ncc(F)c(-c4cc(F)c5nc6n(c5c4)[C@H](C)CCC6)n3)nc2)CC1 | – | human advanced solid tumours | 400 mg, phase Ia monotherapy RECIST 1.1 | – | progressive disease | 0% |
| CC(c1cc2ccccc2s1)N(O)C(N)=O (centres unmarked) | measured: 7-HDHA | human whole blood | 3 µM, added: Escherichia coli | – | amount | 27 ± 10 pg/mL blood |
| N#Cc1ccc2c(-c3ccncc3)c(-c3ccc(F)cc3)nn2c1 | kinase binding, competitor, MIB/MS competition, measured: CMK1 | Candida albicans cell lysate | 1 µM | relative to: DMSO | log2 fold change | 0.253 |
| O=C(O)CNC(=O)Cc1ccccc1 | – | ventricular cardiomyocytes, C57BL/6 mouse | dose not given, 0.148 s | – | sarcomere length | 1.67 µm |
| C=CCn1c(=O)c2cnc(Nc3ccc(N4CCN(C)CC4)cc3)nc2n1-c1ccc2c(n1)[C@@](O)(CC)CC2 | – | JIMT-1 xenograft, NOD/SCID mouse | oral, 60 mg/kg once daily for 28 days, day 29 | – | tumour volume difference | 286 ± 11.1 mm3 |
| CSCCNc1nc(SCCC(F)(F)F)nc2c1ncn2[C@@H]1O[C@H](COP(=O)(O)OP(=O)(O)C(Cl)(Cl)P(=O)(O)O)[C@@H](O)[C@H]1O | light transmittance aggregometry | human patients, platelet-rich plasma | dose not given, 2 h, added: ADP 20 µM | relative to: patients | patients with IPA above 80% | 7.5% |
| CCCCC1(CCCC)CN(c2ccccc2)c2cc(SC)c(OCC(=O)N[C@@H](C(=O)NCC(=O)O)c3ccccc3)cc2S(=O)(=O)C1 | measured: 7α-hydroxy-4-cholesten-3-one | human, plasma | 10 mg once daily, day 8 | – | plasma C4 | 55.9 ng/mL |

Some of these lines once more:
| Structure (SMILES) | test | system | conditions | scale | quantity | result |
| --- | --- | --- | --- | --- | --- | --- |
| Cc1n[nH]c2ccc(-c3cc(OC[C@@H](N)Cc4ccccc4)cnc3-c3ccoc3)cc12 | kinase binding, competitor, MIB/MS competition, measured: CTK1 | Candida albicans cell lysate | 1 µM | relative to: DMSO | log2 fold change | -0.159 |
| c1ccc(-c2n[nH]cc2-c2ccnc3ccccc23)nc1 | kinase binding, competitor, MIB/MS competition, measured: ATG1 | Candida albicans cell lysate | 100 nM | relative to: DMSO | log2 fold change | 1.35 |
| N#Cc1ccc2c(c1)[C@H]1CCCN(C(=O)c3ccc4[nH]cnc4c3)[C@H]1C2 | – | human, urine | 20 mg, 24 h, day 1 over day -1 | relative to: placebo and baseline | total urinary corticosteroids | 68.7 % change |
| CCCN1CCCC[C@H]1C(=O)Nc1c(C)cccc1C | – | Sprague-Dawley rat, male | intrathecal, 30 µL, 15 mM | – | motor block | 100 % MPE |
| CC[C@@H]1[C@H](F)C(=O)N[C@@H]1COc1nccc2cc(C(N)=O)c(OC)cc12 | ATP-site probe binding, ActivX profiling, measured: TAO1, TAO3 | THP-1 cell lysate | 0.01 mM, Lys2 site | – | inhibition | 6.6% |
